Measurements gathered from unrelated publications.
Each line is one published result; not all experiments were run side by side. Values joined by “and” are separate records of one study, mostly repeats; a detail may differ. ± gives the spread as reported. Values after ≈ are worked out from the molar mass of the structure shown.

SMILES | organism | assay | test system | conditions | scale | quantity | value
CC[C@H](C)[C@H](NC(=O)[C@H](C)NC(=O)CNC(=O)[C@H](C)NC(=O)[C@H](CCCCN)NC(=O)[C@H](CO)NC(=O)[C@H](C)NC(=O)[C@H](CCSC)NC(=O)CN)C(=O)N[C@@H](C)C(=O)NCC(=O)N[C@@H](CCCCN)C(=O)N[C@H](C(=O)N[C@@H](C)C(=O)N[C@@H](CCCCN)C(=O)N[C@H](C(=O)N[C@@H](C)C(=O)N[C@@H](CC(C)C)C(=O)N[C@@H](CCCCN)C(=O)N[C@@H](C)C(=O)N[C@@H](CC(C)C)C(N)=O)C(C)C)[C@@H](C)CC | Escherichia coli |  | CFT073 nalidixic acid-resistant | 18 h, 37 °C, minimal salts medium |  | MIC | 2.5 µg/mL
CC(C)SC(SC(C)C)c1ccc(OCCNS(=O)(=O)c2ccc(Br)cc2)c(Cl)c1 | Tobacco mosaic virus | inactivation activity | plant in vivo |  |  | EC50 | 134 ± 1.8 µg/mL
COc1ccc(C2=[N+]([O-])c3ccccc3N3CCCN=C23)cc1 | Prevotella spp. | bacterial growth |  |  |  | MIC90 | 1 µg/mL (≈ 3.25 µM)
CCCSC(SCCC)c1ccc(OCCNS(=O)(=O)c2ccc(C)cc2)c(OC)c1 | tobacco mosaic virus | curative activity | in vivo plant |  |  | EC50 | > 2500 µg/mL
O=[N+]([O-])c1ccc(C2=[N+]([O-])c3ccccc3N3CCCN=C23)cc1 | Prevotella spp. | bacterial growth |  |  |  | MIC90 | 0.125 µg/mL (≈ 0.388 µM)
C[C@H](NC(=O)Cc1cc(F)cc(F)c1)C(=O)N[C@@H]1C(=O)N(C)c2ccccc2-c2ccccc21 | dengue virus type 2 | viral replication, Renilla luciferase reporter virus | Raji DC-SIGN | 48 h |  | EC50 | 30.5 nM
CCOC(=O)C1(Cc2ccccc2)Oc2cc(C)ccc2N(Cc2ccccc2)C1=O (stereo not shown) | Eclipta prostrata | fresh weight, greenhouse postemergence |  | postemergence, 150 g ai/ha, 21 days |  | inhibition | 52.9 ± 2.58%
CC[C@H](C)[C@H](NC(=O)[C@H](CCCCN)NC(=O)[C@H](CCCCN)NC(=O)[C@H](Cc1ccccc1)NC(=O)[C@H](Cc1ccccc1)NC(=O)[C@H](CCCCN)NC(=O)[C@H](CCCCN)NC(=O)[C@H](Cc1ccccc1)NC(=O)[C@H](CCCNC(=N)N)NC(=O)[C@@H](N)CCCCN)C(=O)N[C@@H](CCCCN)C(=O)N[C@@H](CCCCN)C(=O)N[C@@H](CO)C(=O)N[C@H](C(=O)N[C@@H](CCCCN)C(=O)N[C@@H](CCCCN)C(=O)N[C@@H](CCCNC(=N)N)C(=O)N[C@H](C(=O)N[C@@H](CCCCN)C(=O)N[C@@H](CCCCN)C(=O)N[C@@H](CC(C)C)C(=O)N[C@@H](Cc1ccccc1)C(=O)N[C@@H](CCCCN)C(=O)N[C@@H](CCCCN)C(=O)N1CCC[C@H]1C(=O)N[C@@H](CCCNC(=N)N)C(=O)N[C@H](C(=O)N[C@H](C(=O)N1CCC[C@H]1C(=O)N[C@H](C(=O)N[C@@H](CO)C(=O)N[C@H](C(=O)N1CCC[C@H]1C(=O)N[C@@H](Cc1ccccc1)C(=O)O)[C@@H](C)CC)[C@@H](C)CC)[C@@H](C)CC)C(C)C)C(C)C)C(C)C | Escherichia coli |  | ATCC 25922 | 20 h |  | MBC | 8 µg/mL (≈ 1.9 µM)
Cc1ccc(S(=O)(=O)NCCOc2ccc(C(SC(C)C)SC(C)C)cc2)cc1 | Tobacco mosaic virus | curative activity | plant in vivo |  |  | EC50 | 1481 ± 2.5 µg/mL
CC[C@H](C)CCCCC(=O)N[C@@H](CCN)C(=O)N[C@H](C(=O)N[C@@H](CCN)C(=O)N[C@H]1CCNC(=O)[C@H]([C@@H](C)O)NC(=O)[C@H](CCN)NC(=O)[C@H](CCN)NC(=O)[C@H](CC(C)C)NC(=O)[C@@H](CC(C)C)NC(=O)[C@H](CCN)NC1=O)[C@@H](C)O | Escherichia coli | daily serial passaging | ATCC 8739 | highest sub-MIC, 15 days | baseline: initial MIC | MIC fold change | 1.47
CC(C)C[C@H](NC(=O)[C@H](Cc1ccccc1)NC(=O)[C@H](CCC(N)=O)NC(=O)[C@H](Cc1ccc(O)cc1)NC(=O)[C@H](CCCCN)NC(=O)[C@@H]1CCCN1C(=O)[C@H](CCCNC(=N)N)NC(=O)[C@H](CCC(N)=O)NC(=O)[C@H](Cc1c[nH]c2ccccc12)NC(=O)[C@H](CS)NC(=O)[C@H](Cc1c[nH]c2ccccc12)NC(=O)[C@H](Cc1ccccc1)NC(=O)[C@H](CCCNC(=N)N)NC(=O)[C@H](CCCCN)NC(=O)[C@H](CCCCN)NC(=O)[C@H](CCCCN)NC(=O)[C@@H](NC(=O)[C@@H](NC(=O)[C@H](CC(C)C)NC(=O)[C@@H](N)CO)C(C)C)[C@@H](C)O)C(=O)O | Staphylococcus haemolyticus |  |  |  |  | MBC | 8 µg/mL (≈ 3.03 µM)
CC(C)C[C@H](NC(=O)[C@H](CC(C)C)NC(=O)[C@H](CCCCN)NC(=O)[C@H](Cc1ccccc1)NC(=O)[C@@H](NC(=O)[C@H](CCCNC(=N)N)NC(=O)[C@@H](N)CCCCN)C(C)C)C(=O)N[C@@H](CCCCN)C(=O)N[C@@H](CCCNC(=N)N)C(=O)N[C@@H](Cc1ccc(O)cc1)C(=O)N[C@@H](Cc1c[nH]c2ccccc12)C(=O)N[C@@H](CCCNC(=N)N)C(=O)N[C@@H](CCC(N)=O)C(=O)N[C@@H](CC(C)C)C(=O)N[C@@H](CCCCN)C(=O)N[C@@H](CCCCN)C(=O)N1CCC[C@H]1C(=O)N[C@H](C(=O)N[C@@H](CCCNC(=N)N)C(=O)NCCOCCOCC(=O)O)C(C)C | Staphylococcus aureus and Pseudomonas aeruginosa | ELISA | BALB/c mice, polymicrobial wound infection, wound tissue | 60 µg | baseline: vehicle | TNF-α and IL-6 levels | decreased
COc1cc(C(SC(C)C)SC(C)C)ccc1OCCNS(=O)(=O)c1ccc(Cl)cc1 | tobacco mosaic virus | protective activity | in vivo plant |  |  | EC50 | 250 ± 3.5 µg/mL
[O-][N+]1=C(c2ccccc2)C2=NCCCN2c2ncccc21 | Parabacteroides distasonis and Bacteroides spp. | bacterial growth |  |  |  | MIC50 | ≤ 0.06 µg/mL
Cc1ccc(N2CC3CC(C2)N3C)cc1C(=O)NC1(c2ccc3c4c(cccc24)C(=O)N3C)CC1 | Human coronavirus NL63 | viral replication |  | 0.1 µM |  | inhibition | 54.8%
CCOC(=O)C1(Cc2ccc(C#N)cc2)Oc2cc(F)ccc2N(Cc2ccc(C#N)cc2)C1=O (stereo not shown) | Echinochloa crus-galli | fresh weight, greenhouse postemergence |  | postemergence, 150 g ai/ha, 21 days |  | inhibition | 50.3 ± 1.88%
Cc1cc(C(=O)Nc2nc3cccc(C)c3n2[C@H]2CCCCN(C(=O)/C=C/CN(C)C)C2)ccn1 | Trypanosoma brucei | cell growth, Alamar Blue | 2T1 overexpressing Tb927.10.4990 |  | baseline: parental 2T1 | EC50 fold shift | 1.56 fold and 0.82 fold
O=C(NNc1ccc(Cl)cc1)c1nnc(CC23CC4CC(CC(C4)C2)C3)o1 | Fusarium oxysporum | microbial growth |  | 50 µg/mL |  | inhibition | 100%
OB(O)c1ccc(C(F)(F)F)s1 | Staphylococcus aureus | crystal violet | USA300 wild type | 100 µM | baseline: wild type untreated | biofilm formation | 28% and 23.9% and 21.5%

SMILES | organism | assay | test system | conditions | scale | quantity | value
C=CCN1C(=O)C(CC=C)(C(=O)OCC)Oc2cc(F)ccc21 (stereo not shown) | Sclerotinia sclerotiorum | microbial growth |  | 200 µg/mL |  | inhibition | > 50%
COc1cc(C(SC(C)C)SC(C)C)ccc1OCCNS(=O)(=O)c1ccc(F)c(Cl)c1 | Tobacco mosaic virus | inactivation activity | plant in vivo |  |  | EC50 | 1066 ± 4.3 µg/mL
[O-][N+]1=C(c2ccc(Cl)cc2)C2=NCCCCN2c2ccccc21 | Prevotella spp. | bacterial growth |  |  |  | MIC90 | 0.5 µg/mL (≈ 1.53 µM)
CCOC(=O)C1(Cc2ccccc2)Oc2cc(F)ccc2N(Cc2ccccc2)C1=O (stereo not shown) | Eclipta prostrata |  | greenhouse | postemergence, 150 g ai/ha, 21 days |  | fresh weight inhibition | 65.6 ± 1.77%
Cc1cc(N2CCC(C#N)(C3(C)CC3)C2=O)cc(C(=O)NCc2cc(F)cc(-c3cnn(C)c3)c2)n1 (racemic) | Plasmodium falciparum | parasite growth, [3H]hypoxanthine incorporation | Dd2 ELQ-300-resistant, PfcytB mutant |  |  | IC50 | 19 nM
CCOC(=O)C1(Cc2cccc(C)c2)Oc2cc(F)ccc2N(Cc2cccc(C)c2)C1=O (stereo not shown) | Echinochloa crus-galli | fresh weight, greenhouse postemergence |  | postemergence, 150 g ai/ha, 21 days |  | inhibition | 54.9 ± 2.02%
CCCSC(SCCC)c1ccc(OCCNS(=O)(=O)c2ccc(F)c(Cl)c2)c(OC)c1 | Tobacco mosaic virus | inactivation activity | plant in vivo |  |  | EC50 | 383.2 ± 3.1 µg/mL
CN(C(=O)c1ccn2ncc(-c3ccc(C(N)=O)cc3)c2c1)c1ccc(C#N)cn1 | Cryptosporidium parvum |  | UGA1 Nluc, IFN-gamma knockout C57BL/6 mice, faeces | oral, 10 mg/kg daily, 72 h post infection, treatment days 3-9 | higher means more parasites | faecal Nluc luminescence | 1350 a.u. and 1250 a.u. and 599 a.u. and 433 a.u. and 609 a.u.
[O-][N+]1=C(c2ccsc2)C2=NCCCN2c2ccccc21 | Prevotella spp. | bacterial growth |  |  |  | MIC50 | 0.125 µg/mL (≈ 0.441 µM)
CCOC(=O)C1(Cc2ccc(C)cc2)Oc2cc(F)ccc2N(Cc2ccc(C)cc2)C1=O (stereo not shown) | Eclipta prostrata | fresh weight, greenhouse postemergence |  | postemergence, 150 g ai/ha, 21 days |  | inhibition | 58.9 ± 3.35%
CCCSC(SCCC)c1ccc(OCCNS(=O)(=O)c2ccc(C)cc2)cc1 | Tobacco mosaic virus | inactivation activity | plant in vivo |  |  | EC50 | 612.6 ± 0.7 µg/mL
[O-][N+]1=C(c2ccc(Cl)cc2)C2=NCCCN2c2ccccc21 | Parabacteroides distasonis and Bacteroides spp. | bacterial growth |  |  |  | MIC50 | 1 µg/mL (≈ 3.21 µM)
C[C@H]1O[C@@H](O[C@H]2CC[C@@]3(C)[C@H](C2)C[C@@H]2O[C@]24[C@@H]3C[C@@H](O)[C@]2(C)[C@@H](C3=CC(=O)OC3)CC[C@@]24O)[C@H](O)[C@H](O)[C@@H]1O[C@@H]1O[C@H](CO)[C@@H](O)[C@H](O)[C@H]1O | Oncopeltus fasciatus |  |  | diet, concentration not given |  | eggs per female | 294
CC[C@H](C)[C@H](NC(=O)[C@H](CCCNC(=N)N)NC(=O)[C@H](CO)NC(=O)[C@H](Cc1ccc(O)cc1)NC(=O)[C@@H](NC(=O)[C@@H](NC(=O)[C@H](C)NC(=O)CNC(=O)[C@H](CCCCN)NC(=O)[C@H](CCCCN)NC(=O)CCNC(=O)CCCCCNC(=O)[C@H](CCCNC(=N)N)NC(=O)CCCCCNC(=O)[C@H](CCCNC(=N)N)NC(=O)[C@H](CCCNC(=N)N)NC(=O)CCCCCNC(=O)[C@H](CCCNC(=N)N)NC(=O)[C@H](CCCNC(=N)N)NC(=O)CCCCCNC(=O)[C@H](CCCNC(=N)N)NC(=O)[C@H](CCCNC(=N)N)NC(=O)CCCCCNC(=O)[C@@H](N)CCCNC(=N)N)C(C)C)[C@@H](C)O)C(=O)N[C@@H](CO)C(=O)NCC(=O)N[C@@H](CCC(N)=O)C(=O)N[C@@H](Cc1ccc(O)cc1)C(=O)N[C@@H](CCCCN)C(=O)O | Escherichia coli |  | ATCC 25922, Mueller-Hinton broth | together with: NaCl 150 mM |  | MIC | 48 µM
COc1cc(C(SC(C)C)SC(C)C)ccc1OCCNS(=O)(=O)c1ccc(C)cc1 | Tobacco mosaic virus | curative activity | plant in vivo |  |  | EC50 | 356.8 ± 3.5 µg/mL
COc1ccc(C2=[N+]([O-])c3ccccc3N3CCN=C23)cc1 | Parabacteroides distasonis and Bacteroides spp. | bacterial growth |  |  |  | MIC50 | ≤ 0.06 µg/mL
NCCO.O=C(O)C(Cl)Cl | Eclipta prostrata |  |  | 15 mg/mL, 21 days, post-emergence, greenhouse |  | herbicidal inhibition | 0%
CCOC(=O)C1(Cc2cccc(C(C)C)c2)Oc2cc(F)ccc2N(Cc2cccc(C(C)C)c2)C1=O (stereo not shown) | Eclipta prostrata | fresh weight, greenhouse postemergence |  | postemergence, 150 g ai/ha, 21 days |  | inhibition | 61.2 ± 1.98%

For quick reference, copied from above:
SMILES | organism | assay | test system | conditions | scale | quantity | value
CN(C(=O)c1ccn2ncc(-c3ccc(C(N)=O)cc3)c2c1)c1ccc(C#N)cn1 | Cryptosporidium parvum |  | UGA1 Nluc, IFN-gamma knockout C57BL/6 mice, faeces | oral, 10 mg/kg daily, 72 h post infection, treatment days 3-9 | higher means more parasites | faecal Nluc luminescence | 1350 a.u. and 1250 a.u. and 599 a.u. and 433 a.u. and 609 a.u.
CC(C)C[C@H](NC(=O)[C@H](Cc1ccccc1)NC(=O)[C@H](CCC(N)=O)NC(=O)[C@H](Cc1ccc(O)cc1)NC(=O)[C@H](CCCCN)NC(=O)[C@@H]1CCCN1C(=O)[C@H](CCCNC(=N)N)NC(=O)[C@H](CCC(N)=O)NC(=O)[C@H](Cc1c[nH]c2ccccc12)NC(=O)[C@H](CS)NC(=O)[C@H](Cc1c[nH]c2ccccc12)NC(=O)[C@H](Cc1ccccc1)NC(=O)[C@H](CCCNC(=N)N)NC(=O)[C@H](CCCCN)NC(=O)[C@H](CCCCN)NC(=O)[C@H](CCCCN)NC(=O)[C@@H](NC(=O)[C@@H](NC(=O)[C@H](CC(C)C)NC(=O)[C@@H](N)CO)C(C)C)[C@@H](C)O)C(=O)O | Staphylococcus haemolyticus |  |  |  |  | MBC | 8 µg/mL (≈ 3.03 µM)
CCOC(=O)C1(Cc2ccccc2)Oc2cc(C)ccc2N(Cc2ccccc2)C1=O (stereo not shown) | Eclipta prostrata | fresh weight, greenhouse postemergence |  | postemergence, 150 g ai/ha, 21 days |  | inhibition | 52.9 ± 2.58%
